Assay results collected from several papers.
Each numbered part is a random draw from the data of one study; scales do not carry over between parts.

Block 1
Cell line: HEK-293T
Read-out: pseudovirus infection
Technique: FDA-approved drug library screen
Organism: VSV pseudotyped with SARS-CoV-2 spike
Concentration: 10 µM
Time: 16 h
Relative to: vehicle-treated
Structure (SMILES)	GFP-positive cells [%]
Nc1nc2[nH]cc(CCc3ccc(C(=O)N[C@@H](CCC(=O)O)C(=O)O)cc3)c2c(=O)[nH]1	80.9
CCCCC(=O)O[C@H]1CC[C@H]2[C@@H]3CCc4cc(O)ccc4[C@H]3CC[C@]12C	87.2
Cc1ccnc(NS(=O)(=O)c2ccc(N)cc2)n1	87.2

Block 2
Target: Sal-like protein 4, full length isoform A (SALL4, Homo sapiens, UniProt Q9UJQ4, residues 1-1053)
Sequence of UniProt Q9UJQ4 (whole entry, looked up): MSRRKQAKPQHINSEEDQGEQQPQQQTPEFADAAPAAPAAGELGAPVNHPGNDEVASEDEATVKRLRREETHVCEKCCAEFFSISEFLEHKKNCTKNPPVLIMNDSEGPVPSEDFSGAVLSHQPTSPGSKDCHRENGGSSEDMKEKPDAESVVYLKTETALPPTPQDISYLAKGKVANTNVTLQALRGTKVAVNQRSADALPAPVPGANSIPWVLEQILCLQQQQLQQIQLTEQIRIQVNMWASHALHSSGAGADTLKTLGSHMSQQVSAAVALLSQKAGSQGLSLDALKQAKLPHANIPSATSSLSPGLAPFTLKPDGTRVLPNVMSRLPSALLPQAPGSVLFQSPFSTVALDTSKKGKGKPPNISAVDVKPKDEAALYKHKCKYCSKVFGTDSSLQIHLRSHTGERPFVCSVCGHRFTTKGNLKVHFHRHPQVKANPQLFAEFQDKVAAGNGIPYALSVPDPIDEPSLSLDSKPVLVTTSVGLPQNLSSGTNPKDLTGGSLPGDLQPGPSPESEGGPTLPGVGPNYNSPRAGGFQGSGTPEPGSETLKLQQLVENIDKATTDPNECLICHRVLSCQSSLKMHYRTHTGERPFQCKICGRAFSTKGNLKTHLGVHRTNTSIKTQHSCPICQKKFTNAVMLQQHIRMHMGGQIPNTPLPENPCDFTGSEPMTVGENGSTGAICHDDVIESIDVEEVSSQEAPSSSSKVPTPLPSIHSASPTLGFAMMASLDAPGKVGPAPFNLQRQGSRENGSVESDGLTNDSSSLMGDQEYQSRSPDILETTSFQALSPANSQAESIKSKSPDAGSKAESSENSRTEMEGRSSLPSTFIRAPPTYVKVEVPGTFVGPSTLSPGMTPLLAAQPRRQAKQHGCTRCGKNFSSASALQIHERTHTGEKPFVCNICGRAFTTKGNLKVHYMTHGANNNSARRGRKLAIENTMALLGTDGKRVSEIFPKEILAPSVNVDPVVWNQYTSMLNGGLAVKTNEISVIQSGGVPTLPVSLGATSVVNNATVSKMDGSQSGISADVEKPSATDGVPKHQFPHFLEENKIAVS
Technique: universal PBM
Molecule type: double-stranded DNA, one strand shown
Sample: in vitro
Concentration: 600 nM
Notes: 8-mer, flanks averaged, mean of replicates
Reading: higher = stronger binding
Oligonucleotide	E-score
AGCTAGAC	-0.0737
CAGGCACG	-0.25
CGAGAAAG	0.0976
ACTGAAGA	0.0978
CAGGGTAC	-0.203
CAGACAGC	-0.167
TCTACCAA	0.153
ACGGAGCT	-0.243

Block 3
Target: Phosphate system positive regulatory protein PHO4, full length, GST-tagged (PHO4, Saccharomyces cerevisiae, UniProt P07270, residues 1-312)
Technique: competition protein-binding microarray
Molecule type: double-stranded DNA, one strand shown
Sample: in vitro
Concentration: 2 µM
Notes: whole 60-bp probe, lowest competitor level
With: Cbf1 competitor, 0.05 µM
Reading: higher = stronger binding
Constant ends, left off below: … GTCTTGATTCGCTTGACGCTGCTG
Residues (chain): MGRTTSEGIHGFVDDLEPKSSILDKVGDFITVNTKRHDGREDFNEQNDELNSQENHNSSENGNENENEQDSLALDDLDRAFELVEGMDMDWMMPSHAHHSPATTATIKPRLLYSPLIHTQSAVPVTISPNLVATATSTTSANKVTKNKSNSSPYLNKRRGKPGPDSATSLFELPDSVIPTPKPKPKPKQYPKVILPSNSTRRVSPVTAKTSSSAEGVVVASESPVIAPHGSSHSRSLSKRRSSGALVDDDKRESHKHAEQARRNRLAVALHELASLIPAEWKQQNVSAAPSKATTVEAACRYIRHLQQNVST
Oligonucleotide	fluorescence intensity [a.u.]
AAATTACTAAGTTGGTCAGTGGGTGACGCCGTATGA	3600
AAATTACTAAGTTGAAAAGTGGGTGACGCCGTATGA	3490
CTTTCCCGATCTTGACGAGTGGGTGTAGCACATTTG	4190
CGGGGTTAAGTTTTTCACGTGTGATGCTTGCAGCAG	12400
CGCGCTGCCGGCCAAGACGTGATGGTGGTTGTCGAC	4260
TGTACACATAATGGACACGTTTAACAATTAGTGAGC	11600
CTAATTCAGCACCAACACGTGAGATCCAACTAATAA	15500
GCCCCAAAATACTGTCACAGTAAAGACCATGCTTGT	4430

Block 4
Organism: SARS-CoV-2
Read-out: cytopathic effect
Cell line: Vero E6
Concentration: 10 µM
SMILES	inhibition [%]
COC(=O)CC[C@H](NC(=O)[C@H](CC(=O)OC)NC(=O)OCc1ccccc1)C(=O)N[C@H](C(=O)N[C@@H](CC(=O)OC)C(=O)CF)C(C)C	7.5
CN1CCc2cccc3c2[C@H]1Cc1ccc(O)c(O)c1-3	0.22
COc1ccc2[nH]c([S@@+]([O-])Cc3ncc(C)c(OC)c3C)nc2c1	0.55
CCn1c(-c2nonc2N)nc2cncc(CNC3CCNCC3)c21	10.8

Block 5
Target: Replicase polyprotein 1ab, nsp13 helicase (rep, Severe acute respiratory syndrome coronavirus 2, UniProt P0DTD1)
Action: inhibitor
Concentration: 20 µM
SMILES	inhibition
COc1ccc(-c2cc(=O)c3c(OC)c(OC)c(OC)c(OC)c3o2)cc1OC	1.93%
CC(=O)OCC(=O)[C@@]1(O)CC[C@H]2[C@@H]3CCC4=CC(=O)CC[C@]4(C)[C@@]3(F)[C@@H](O)C[C@@]21C	6.34%
O=C(CN1CCNCC1)NC1CCCCC1	6.22%
CC(=O)OCC(=O)[C@@]1(OC(C)=O)[C@@H](C)C[C@H]2[C@@H]3C[C@H](F)C4=CC(=O)C=C[C@]4(C)[C@@]3(F)[C@@H](O)C[C@@]21C	3.77%
O=c1[nH]c(=O)n([C@H]2C[C@H](O)[C@@H](CO)O2)cc1/C=C/Br	0.46%
CCCCC/C=C\C=C\CCCCCCCCC(=O)O	7.42%
COc1ccc(C2(O)OC(=O)C(c3ccc4c(c3)OCO4)=C2Cc2cc(OC)c(OC)c(OC)c2)cc1 (centres unmarked)	10.2%
CSC[C@H](N)C(=O)O	3.33%
Cn1c(NC[C@@H](N)Cc2ccccc2)nc(-c2ccncc2)c(-c2ccc3ccccc3c2)c1=O	19.7%
COC(=O)/C=C/c1cccc(N(Cc2ccc(-c3ccc(N(C)C)cc3)cc2)C(=O)C2CCCCC2)c1	2.18%
OC(c1ccccc1)(c1ccccc1)C1CCNCC1	0.89%
CC1(C)C[C@@H]1C(=O)N/C(=C\CCCCSC[C@H](N)C(=O)O)C(=O)O	-4.15%
C[C@]12CC[C@H](O)CC1=CC[C@@H]1[C@@H]2CC[C@]2(C)C(n3cnc4ccccc43)=CC[C@@H]12	-4.36%
O=c1[nH]cnc2c1ncn2[C@H]1CC[C@@H](CO)O1	2.34%
N#C/C(=C(/N)Sc1ccc(N)cc1)c1ccccc1C(F)(F)F	4.18%
CCOCC(O)COc1ccc(NC(=O)CC[S+](C)C)cc1 (centres unmarked)	8.45%
CCCCCCCCCCCCCC[C@@H](O)[C@@H](O)[C@@H](N)CO	-2.85%
CC(=O)NNC(=O)N1Cc2ccccc2Oc2ccc(Cl)cc21	3.31%
COc1ccc(-c2cc3nccn3c(Nc3ncccc3C(N)=O)n2)cc1OC	10.6%
CN(CCc1ccc(Cl)c(Cl)c1)CCN1CCCC1	6.98%
c1ccc2c(c1)CN1CCCC1=N2	2.17%
COc1cccc(-c2cc(F)ccc2[C@H]2Cc3nc(N)nc(C)c3C(=O)N2)n1	7.93%
Oc1nc(O)c2cn[nH]c2n1	2.81%
Oc1ccc2ccccc2c1	3.89%
CN1CCN(c2c(F)cc3c(=O)c(C(=O)O)cn(CCF)c3c2F)CC1	3.72%

Block 6
Target: Histone acetyltransferase KAT6A, winged helix 1, GST fusion (KAT6A, Homo sapiens, UniProt Q92794, residues 1-85)
Technique: protein binding microarray
Molecule type: double-stranded DNA, one strand shown
Sample: in vitro
Concentration: not given
Notes: 8-mer, flanks averaged, mean of 2 arrays, mostly near background
Relative to: not given
Reading: higher = stronger binding
Construct (chain): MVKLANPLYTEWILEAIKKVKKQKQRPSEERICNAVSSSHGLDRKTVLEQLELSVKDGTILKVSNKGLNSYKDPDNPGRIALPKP
Oligonucleotide	E-score
CTAGAGCA	-0.0309
GGAAAGCC	0.111
CAAAAACG	0.00424
GCACTGTA	0.00451
AGCTGAAA	-0.117
TCAGTGCA	-0.213
GTATTTTA	-0.146
ACTATGGA	-0.0374

Excerpt of the above (block 5):
SMILES	inhibition
CC(=O)OCC(=O)[C@@]1(O)CC[C@H]2[C@@H]3CCC4=CC(=O)CC[C@]4(C)[C@@]3(F)[C@@H](O)C[C@@]21C	6.34%
O=C(CN1CCNCC1)NC1CCCCC1	6.22%
CC(=O)OCC(=O)[C@@]1(OC(C)=O)[C@@H](C)C[C@H]2[C@@H]3C[C@H](F)C4=CC(=O)C=C[C@]4(C)[C@@]3(F)[C@@H](O)C[C@@]21C	3.77%
O=c1[nH]c(=O)n([C@H]2C[C@H](O)[C@@H](CO)O2)cc1/C=C/Br	0.46%
CCCCC/C=C\C=C\CCCCCCCCC(=O)O	7.42%
COc1ccc(C2(O)OC(=O)C(c3ccc4c(c3)OCO4)=C2Cc2cc(OC)c(OC)c(OC)c2)cc1 (centres unmarked)	10.2%
CSC[C@H](N)C(=O)O	3.33%
Cn1c(NC[C@@H](N)Cc2ccccc2)nc(-c2ccncc2)c(-c2ccc3ccccc3c2)c1=O	19.7%
COC(=O)/C=C/c1cccc(N(Cc2ccc(-c3ccc(N(C)C)cc3)cc2)C(=O)C2CCCCC2)c1	2.18%
